Assay results collected from several papers.
Numbered parts are unrelated; each lists some results of a single study.

Block 1 — technique: protein-binding microarray; molecule type: double-stranded DNA, one strand shown; sample: in vitro; concentration: 250 nM; notes: 60-bp whole probe; added: salmon DNA 0.4 mg/ml; reference: random background probes; direction: higher = stronger binding
Target: Interferon regulatory factor 5, full length, phosphomimetic (IRF5, Homo sapiens, UniProt Q13568-2, residues 1-514, K96S/S451D/S453D/S456D/S462D)
Sequence	log fluorescence
GCCTAGCACTTTGTTTCCATTTTCTGAATGTGCTAGGTCTTGATTCGCTTGACGCTGCTG	2.94 z-score
GCCTAGCACTCATCTTTATGCACTCTCACTGTGCTAGTCTTGATTCGCTTGACGCTGCTG	0.449 z-score
GCCTAGCACGACCATATCAGTCTCGAGACGTGCTAGGTCTTGATTCGCTTGACGCTGCTG	0.634 z-score
GCCTAGCACATTTTTTTATCAATCATTTTGTGCTAGGTCTTGATTCGCTTGACGCTGCTG	1.51 z-score

Block 2 — technique: RNA Bind-n-Seq; molecule type: RNA; sample: in vitro; concentration: not given; reference: input RNA pool; direction: higher = stronger binding
Target: RING finger protein unkempt homolog, zinc fingers 1-6, GST-SBP tag (UNK, Homo sapiens, UniProt Q9C0B0, residues 30-357)
Sequence of UniProt Q9C0B0 (30-357, looked up): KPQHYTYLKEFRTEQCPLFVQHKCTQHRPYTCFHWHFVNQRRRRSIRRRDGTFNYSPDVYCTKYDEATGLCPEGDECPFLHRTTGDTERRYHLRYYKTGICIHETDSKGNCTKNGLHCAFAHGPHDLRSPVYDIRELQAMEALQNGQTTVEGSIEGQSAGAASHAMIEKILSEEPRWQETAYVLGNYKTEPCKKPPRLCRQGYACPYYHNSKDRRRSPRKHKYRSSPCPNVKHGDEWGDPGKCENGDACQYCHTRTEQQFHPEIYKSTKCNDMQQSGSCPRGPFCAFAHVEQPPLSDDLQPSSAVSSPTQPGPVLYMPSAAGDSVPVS
Notes: RNA with constant flanks, human and mouse sites, ends assumed
Sequence	bound/input enrichment
GGGAGUUCUACAGUCCGACGAUCGAGACUAAUGUUUAACUUUGAGAUACGUUUUCUGAGAGUUGCUAACCGGUUGGAGAUGAACUUAGAGAAUAGGGUUCACCUUUUUCGUCUGUCAGCGGGUUAUCGAGUGCCCAGUGGUGUCAACAGAGGAUUGAGCAUCA	0.258 ratio
GGGAGUUCUACAGUCCGACGAUCAUUUAAAAUUCCAGUAGUUAUAUUUAAUGAUCUCACCCCUGAGUUUCUUUUUCAUUAAAGUAGCUUUCAUUUCUAUUAUUCCAAUUUACUGAUAUGAACAAAUAGAAGGUCCGUGUGAGCCAACAGAGGAUUGAGCAUCA	9.89 ratio
GGGAGUUCUACAGUCCGACGAUCACUGUAAGAGUGUGUGUGUUGCAUGUUUACAUAAAACAAUUUCAUUCUGAAGGAUUAUUUCAACUAUGUUUAUAUGUAAUACCUAACAGGUUGUAAAUAGUGUAUACUAUUGAUUUUUAACAACAGAGGAUUGAGCAUCA	0.322 ratio
GGGAGUUCUACAGUCCGACGAUCGAAAAGUACCUUAUUGAUAGUGGAAUUAUAUAUUUUUACUCUAUGUUUCUCUACAUGUUUUUUUCUUUCCGUUGCUGAAAAAUAUUUGAAACUUGUGGUCUCUGAAGCUCGGUGGCACCUCAACAGAGGAUUGAGCAUCA	0.403 ratio

Block 3 — technique: aptamer microarray, sandwich; molecule type: DNA with 2'F-ANA; sample: in vitro; concentration: 200 nM; added: Cy3 exosite-II aptamer, 400 nM; direction: higher = stronger binding; sequence: GGTTGGTGTGGTTGG
Target: Prothrombin, mature alpha-thrombin (F2, Homo sapiens, UniProt P00734)
Notes: whole 15-mer aptamer, many near background
Modification	mean fluorescence intensity [a.u.]
2'F-ANA at 2 5 6 7 8 10 12 15	57.3
2'F-ANA at 5 6 11 15	55.3
2'F-ANA at 2 3 5 7 8 9 11 13 14 15	53.9
2'F-ANA at 1 2 3 4 7 9 12 13	204
2'F-ANA at 1 2 8 9 10 13 14	48.7

Mixed results
Substance	target	test	system	setting	how to read	quantity	value
PhoQ, residues 284 288 289 292 302 303 SMYGEC	PhoP, residues 12 14 15 18 19 STHWV (Escherichia coli, UniProt P23836)	Sort-seq, measured: YFP reporter	E. coli	PhoQ-PhoP variant library, added: 10 µM Mg2+	reference: high Mg2+ state, higher = stronger signaling	fold induction	5.54

Excerpt of the above (block 2):
Sequence	bound/input enrichment
GGGAGUUCUACAGUCCGACGAUCGAGACUAAUGUUUAACUUUGAGAUACGUUUUCUGAGAGUUGCUAACCGGUUGGAGAUGAACUUAGAGAAUAGGGUUCACCUUUUUCGUCUGUCAGCGGGUUAUCGAGUGCCCAGUGGUGUCAACAGAGGAUUGAGCAUCA	0.258 ratio
GGGAGUUCUACAGUCCGACGAUCGAAAAGUACCUUAUUGAUAGUGGAAUUAUAUAUUUUUACUCUAUGUUUCUCUACAUGUUUUUUUCUUUCCGUUGCUGAAAAAUAUUUGAAACUUGUGGUCUCUGAAGCUCGGUGGCACCUCAACAGAGGAUUGAGCAUCA	0.403 ratio
